Measurements from different studies.
Each line is one published result; not all experiments were run side by side. ± marks the error that the study gave.

`Cc1cc(/C=C/C#N)cc(C)c1Nc1nc(Nc2ccc(C#N)cc2)ncc1N` gave an EC50 of 0.5 ± 0.1 nM (HIV-1; viral replication, single-round infection; RT mutant E40K).
For `CC(=O)N[C@@H](CCCNC(=O)c1ccc(-c2cc(C(F)(F)F)ccn2)cc1)C(=O)N[C@@H](CCCNC(=O)c1ccc(-c2cc(C(F)(F)F)ccn2)cc1)C(N)=O`, the IC50 was 38000 nM (vaccinia virus VH1 phosphatase; enzyme activity, inhibitor).
With `Nc1ccn(C2CCC(OC(C(=O)O)P(=O)(O)O)C2)c(=O)n1` (racemic) the fold resistance was 1.1 fold (HIV-1 reverse transcriptase Y115F; enzyme activity, inhibitor; together with: poly(rI)·oligo(dC), [3H]dCTP; relative to: mutant over wild type).
`CC[C@H](C)[C@H](NC(=O)[C@H](Cc1ccccc1)NC(=O)[C@@H](NC(=O)[C@@H](NC(=O)[C@H](CC(C)C)NC(=O)[C@H](CCCCN)NC(=O)[C@@H](N)CCCCN)[C@@H](C)CC)[C@@H](C)O)C(=O)N[C@@H](CC(C)C)C(=O)N[C@@H](CCCNC(=N)N)C(=O)N[C@@H](CCCNC(=N)N)C(=O)N[C@H](C(=O)N[C@@H](CCCNC(=N)N)C(=O)N[C@@H](CCC(=O)O)C(=O)N[C@@H](CCCCN)C(=O)N[C@@H](CCCCN)C(=O)N[C@@H](CCCCN)C(=O)N[C@@H](CCC(=O)O)C(=O)N[C@@H](CS)C(=O)N[C@@H](CC(C)C)C(=O)N[C@H](C(=O)O)C(C)C)[C@@H](C)O`: “inactivation equilibrium constant” 0.044 (TTX-sensitive sodium channel (mouse); resurgent sodium current, open-channel blocker, kinetic model fit; mouse hippocampal CA3 neurons; 200 µM assumed intracellular, membrane potential -30 mV, unit not given; relative to: kIO over kOI).
`Cc1cn(C2CCC(OC(C(=O)O)P(=O)(O)O)C2)c(=O)[nH]c1=O` (racemic) has a fold resistance of 36 fold (HIV-1 reverse transcriptase M184I; enzyme activity, inhibitor; together with: poly(rA)·oligo(dT), [3H]dTTP; relative to: mutant over wild type).
With `CC[C@H](C)[C@@H]1NC(=O)[C@H](CC(=O)O)NC(=O)[C@H]([C@@H](C)O)NC(=O)[C@@H]2CSSC[C@@H]3NC(=O)[C@H](CC(C)C)NC(=O)[C@H](CC(N)=O)NC(=O)[C@H](CC(C)C)NC(=O)[C@H](CCCNC(=N)N)NC(=O)[C@H](Cc4ccc(O)cc4)NC(=O)[C@H](CCCCN)NC(=O)[C@H](CCSC)NC(=O)[C@H](CO)NC(=O)[C@H]([C@@H](C)O)NC(=O)[C@H](CCCNC(=N)N)NC(=O)[C@H](CSSC[C@H](NC(=O)[C@H]([C@@H](C)O)NC(=O)[C@H](CCCCN)NC(=O)[C@H](CCCNC(=N)N)NC3=O)C(=O)NCC(=O)N[C@@H](CO)C(=O)N[C@H](C(=O)O)CSSC[C@H](NC(=O)[C@@H](NC(=O)[C@@H](N)CCCNC(=N)N)[C@@H](C)O)C(=O)N[C@@H](CCCCN)C(=O)N[C@@H](CC(=O)O)C(=O)N[C@@H](CC(C)C)C(=O)N[C@@H]([C@@H](C)CC)C(=O)N3CCC[C@H]3C(=O)N[C@@H](C(C)C)C(=O)N[C@@H](CO)C(=O)N[C@@H](CCC(=O)O)C(=O)N2)NC(=O)[C@H](CCCNC(=N)N)NC1=O` the koff was 0.0014 ± 0.0003 s⁻¹ (KcsA-Shaker channel; two-electrode voltage clamp; Xenopus oocytes; 0 mV).
`Cc1cc(/C=C/C#N)cc(C)c1-n1cnc2cnc(Nc3ccc(C#N)cc3)nc21` has an EC50 of 2.2 ± 1.2 nM (HIV-1; viral replication, single-round infection; RT mutant V106A/G190A/F227L).
The kon of `CC[C@H](C)[C@@H]1NC(=O)[C@H](CC(=O)O)NC(=O)[C@H]([C@@H](C)O)NC(=O)[C@@H]2CSSC[C@@H]3NC(=O)[C@H](CC(C)C)NC(=O)[C@H](CC(N)=O)NC(=O)[C@H](CC(C)C)NC(=O)[C@H](CCCNC(=N)N)NC(=O)[C@H](C)NC(=O)[C@H](CCCCN)NC(=O)[C@H](CCSC)NC(=O)[C@H](CO)NC(=O)[C@H]([C@@H](C)O)NC(=O)[C@H](CCCNC(=N)N)NC(=O)[C@H](CSSC[C@H](NC(=O)[C@H]([C@@H](C)O)NC(=O)[C@H](CCCCN)NC(=O)[C@H](CCCNC(=N)N)NC3=O)C(=O)NCC(=O)N[C@@H](CO)C(=O)N[C@H](C(=O)O)CSSC[C@H](NC(=O)[C@@H](NC(=O)[C@@H](N)CCCNC(=N)N)[C@@H](C)O)C(=O)N[C@@H](CCCCN)C(=O)N[C@@H](CC(=O)O)C(=O)N[C@@H](CC(C)C)C(=O)N[C@@H]([C@@H](C)CC)C(=O)N3CCC[C@H]3C(=O)N[C@@H](C(C)C)C(=O)N[C@@H](CO)C(=O)N[C@@H](CCC(=O)O)C(=O)N2)NC(=O)[C@H](CCCNC(=N)N)NC1=O` is reported as 930000 ± 120000 M⁻¹ s⁻¹ (KcsA-Shaker channel; two-electrode voltage clamp; Xenopus oocytes; 0 mV).
`CC[C@H](C)[C@H](NC(=O)[C@H](CCCCN)NC(=O)[C@H](CCCCN)NC(=O)[C@H](CC(C)C)NC(=O)[C@H](Cc1c[nH]c2ccccc12)NC(=O)CN)C(=O)NCC(=O)N[C@@H](CCCCN)C(=O)N[C@@H](CCCCN)C(=O)N[C@H](C(=O)N[C@@H](CCC(=O)O)C(=O)N[C@@H](CCCNC(=N)N)C(=O)N[C@H](C(=O)NCC(=O)N[C@@H](CCC(N)=O)C(=O)N[C@@H](Cc1c[nH]cn1)C(=O)N[C@H](C(=O)N[C@@H](CCCNC(=N)N)C(=O)N[C@@H](CC(=O)O)C(=O)N[C@@H](C)C(=O)N[C@H](C(=O)N[C@H](C(=O)N[C@@H](CCC(N)=O)C(=O)N[C@H](C(=O)N[C@H](C(=O)NCC(=O)N[C@H](C(=O)N[C@@H](C)C(=O)N[C@@H](CCC(N)=O)C(=O)N[C@@H](CCC(N)=O)C(=O)N[C@@H](C)C(=O)N[C@@H](C)C(=O)N[C@@H](CC(N)=O)C(=O)N[C@H](C(=O)N[C@@H](C)C(=O)N[C@@H](C)C(=O)N[C@H](C(=O)N[C@@H](CC(C)C)C(=O)N[C@@H](CCCCN)C(N)=O)[C@@H](C)O)C(C)C)C(C)C)[C@@H](C)CC)[C@@H](C)O)[C@@H](C)CC)[C@@H](C)O)[C@@H](C)O)C(C)C)[C@@H](C)CC` gave an MIC of greater than 1020 µg/mL (Staphylococcus aureus; broth microdilution; ATCC 33592, CAMHB).
The fold resistance of `Nc1ncnc2c1ncn2C1CCC(OC(C(=O)O)P(=O)(O)O)C1` (racemic) is reported as 0.8 fold (HIV-1 reverse transcriptase Q151M; enzyme activity, inhibitor; together with: poly(rU)·oligo(dA), [3H]dATP; relative to: mutant over wild type).
For `CCCCCCCCCCCCCCCCCC(=O)N[C@@H](CCC(=O)NCCCC[C@H](NC(=O)[C@H](CCC(N)=O)NC(=O)[C@H](CCCCN)NC(=O)[C@H](CO)NC(=O)[C@H](CC(C)C)NC(=O)[C@H](CC(=O)O)NC(=O)[C@H](CO)NC(=O)[C@@H](NC(=O)[C@H](Cc1ccccc1)NC(=O)[C@@H](NC(=O)CNC(=O)[C@H](CCC(N)=O)NC(=O)[C@@H](CO)NC(=O)[C@@H](N)Cc1c[nH]cn1)[C@@H](C)O)[C@@H](C)O)C(=O)N[C@@H](CC(=O)O)C(=O)N[C@@H](CCC(=O)O)C(=O)N[C@@H](CCC(N)=O)C(=O)N[C@@H](CC(C)C)C(=O)N[C@@H](C)C(=O)N[C@@H](CCCCN)C(=O)N[C@@H](CC(=O)O)C(=O)N[C@@H](Cc1ccccc1)C(=O)N[C@H](C(=O)N[C@@H](CCC(=O)O)C(=O)N[C@@H](Cc1c[nH]c2ccccc12)C(=O)N[C@@H](CC(C)C)C(=O)N[C@@H](CCCCN)C(=O)N[C@@H](C)C(=O)NCC(=O)NCC(=O)N1CCC[C@H]1C(=O)N[C@@H](CO)C(=O)N[C@@H](CO)C(=O)NCC(=O)N[C@@H](C)C(=O)N1CCC[C@H]1C(=O)N1CCC[C@H]1C(=O)N1CCC[C@H]1C(=O)N[C@@H](CO)C(N)=O)[C@@H](C)CC)C(=O)O`, the EC50 was 0.0063 nM (GLP-1 receptor (monkey); cAMP production, agonist, HTRF; HEK293 expressing monkey GLP-1R).
Under “inactivation equilibrium constant”, `CC[C@H](C)[C@H](NC(=O)[C@H](C)NC(=O)[C@@H](NC(=O)[C@@H](NC(=O)[C@H](CC(C)C)NC(=O)[C@H](CCCCN)NC(=O)[C@@H](N)CCCCN)[C@@H](C)CC)[C@@H](C)O)C(=O)N[C@@H](CC(C)C)C(=O)N[C@@H](CCCCN)C(=O)N[C@@H](CCCCN)C(=O)N[C@H](C(=O)N[C@@H](CCCNC(=N)N)C(=O)N[C@@H](CCC(=O)O)C(=O)N[C@@H](CCCCN)C(=O)N[C@@H](CCCCN)C(=O)N[C@@H](CCCCN)C(=O)N[C@@H](CCC(=O)O)C(=O)N[C@@H](CS)C(=O)N[C@@H](CC(C)C)C(=O)N[C@H](C(=O)O)C(C)C)[C@@H](C)O` is recorded as 0.068 (TTX-sensitive sodium channel (mouse); resurgent sodium current, open-channel blocker, kinetic model fit; mouse hippocampal CA3 neurons; 200 µM assumed intracellular, membrane potential -30 mV, unit not given; relative to: kIO over kOI).
`CCCCCCCCCCCCCCCC(=O)N[C@@H](CCC(=O)NCCOCCOCCC(=O)NCCOCCOCCC(=O)NCCCC[C@H](NC(=O)[C@H](CC(=O)O)NC(=O)[C@H](CC(C)C)NC(=O)[C@H](Cc1ccc(O)cc1)NC(=O)[C@H](CCCCN)NC(=O)[C@H](CO)NC(=O)[C@H](Cc1ccc(O)cc1)NC(=O)[C@H](CC(=O)O)NC(=O)[C@H](CO)NC(=O)[C@@H](NC(=O)[C@H](Cc1ccccc1)NC(=O)[C@@H](NC(=O)CNC(=O)[C@H](CCC(N)=O)NC(=O)[C@@H](CO)NC(=O)[C@@H](N)Cc1c[nH]cn1)[C@@H](C)O)[C@@H](C)O)C(=O)N[C@@H](CCCNC(=N)N)C(=O)N[C@@H](CCCNC(=N)N)C(=O)N[C@@H](C)C(=O)N[C@@H](CCC(N)=O)C(=O)N[C@@H](CC(=O)O)C(=O)N[C@@H](Cc1ccccc1)C(=O)N[C@H](C(=O)N[C@@H](CCC(N)=O)C(=O)N[C@@H](Cc1c[nH]c2ccccc12)C(=O)N[C@@H](CC(C)C)C(=O)N[C@@H](CC(C)C)C(=O)N[C@@H](CC(N)=O)C(=O)N[C@H](C(=O)NCC(=O)NCC(=O)N1CCC[C@H]1C(=O)N[C@@H](CO)C(=O)N[C@@H](CO)C(=O)NCC(=O)N[C@@H](C)C(=O)N1CCC[C@H]1C(=O)N1CCC[C@H]1C(=O)N1CCC[C@H]1C(=O)N[C@@H](CO)C(N)=O)[C@@H](C)O)C(C)C)C(=O)O` gave a urea of 4.88 ± 1.37 mmol/L (rhesus monkey, female; subcutaneous, 300 µg/kg once daily, 28 days).
